Measurements from different studies.
Each numbered part is a random draw from the data of one study; scales do not carry over between parts. Several values in a cell are separate wells, animals, samples, runs or records.

Set 1
Target: Fragile X messenger ribonucleoprotein 1, C-terminal low-complexity region (Fmr1, Mus musculus, UniProt P35922)
Technique: RNA Bind-n-Seq
Molecule type: RNA
Sample: in vitro
Concentration: 200 nM
Notes: whole 134-nt RNA, ends assumed
Added: 150 mM KCl
Relative to: input library
Direction: higher = stronger binding
The log2 enrichment of `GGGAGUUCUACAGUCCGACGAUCGCAGGAAGUAAAAACAAAUGGAAAUGCUUCGGAUAGUGGCAGGGGUGGGGGUUGCUAAGGAAAGGGUGGAAUGGGAGUGGGUAAAGAGUUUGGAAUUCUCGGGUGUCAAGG` is reported as 0.122.
`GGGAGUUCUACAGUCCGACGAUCUCCUGUGCUACACAUCGUAUGUACCGAAUCGGGGUUUUUUGGGUUUUUUGGGUUUUUUGGAAAGUAUUAUGUUACGCCGUUCGGAUCUGCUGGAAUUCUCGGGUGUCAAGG` gave a log2 enrichment of 0.177.
The log2 enrichment of `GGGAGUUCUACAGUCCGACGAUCUAUCAGGAGGGCAGACUUCAAAAGCUACUAAAAAUGAACGGCCCUGAAGAUCUUCCCAAGUCCUAUGACUAUGACCUUAUCAUCAUUGGAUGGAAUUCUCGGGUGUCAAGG` is reported as -1.23.
`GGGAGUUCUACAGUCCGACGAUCUCGGAGGUGGAUUUUGUUUAUUUUUUUAGCUCAUUUCCAGGGGUGGGAAUUUUUUUUUAAUAUGUGUCAUGAAUAAAGUUGUUUUUGAAAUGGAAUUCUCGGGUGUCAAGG` has a log2 enrichment of -0.758.
With `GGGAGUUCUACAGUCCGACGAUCUCAAGUCCUGUGCUACACAUCGUAUGUACCGAAUCGGUUUUUUUGGUUUGGUGGAAAGUAUUAUGUUACGCCGUUCGGAUCUGCACUUCCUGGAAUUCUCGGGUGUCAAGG` the log2 enrichment was -0.708.
`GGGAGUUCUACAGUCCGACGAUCUGGGAGGUGAAUUUUGUUUAUUUUUUUAGCUCAUUUCCAGGGGUGGGAAUUUUUUUUUAAUAUGUGUCAUGAAUAAAGUUGUUUUUGAAAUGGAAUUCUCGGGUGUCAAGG` has a log2 enrichment of 0.143.
`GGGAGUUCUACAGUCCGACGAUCCUCAAGUCCUGUGCUACACAUCGUAUGUACCGAAUCGGGAGGGAAAGGGUGGGAAAGUAUUAUGUUACGCCGUUCGGAUCUGCACUUCCAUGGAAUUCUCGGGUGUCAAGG` gave a log2 enrichment of 1.21.
The log2 enrichment of `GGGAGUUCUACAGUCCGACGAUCAAGUCCUGUGCUACACAUCGUAUGUACCGAAUCGGGGAAAGGGAAAGGGGAAAGGGAAAGUAUUAUGUUACGCCGUUCGGAUCUGCACUUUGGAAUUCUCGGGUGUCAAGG` is reported as 0.255.

Set 2
Target: Centromere-binding protein 1, full length, His-tagged (CBF1, Saccharomyces cerevisiae, UniProt P17106, residues 1-351)
Chain of UniProt P17106 (whole entry, looked up): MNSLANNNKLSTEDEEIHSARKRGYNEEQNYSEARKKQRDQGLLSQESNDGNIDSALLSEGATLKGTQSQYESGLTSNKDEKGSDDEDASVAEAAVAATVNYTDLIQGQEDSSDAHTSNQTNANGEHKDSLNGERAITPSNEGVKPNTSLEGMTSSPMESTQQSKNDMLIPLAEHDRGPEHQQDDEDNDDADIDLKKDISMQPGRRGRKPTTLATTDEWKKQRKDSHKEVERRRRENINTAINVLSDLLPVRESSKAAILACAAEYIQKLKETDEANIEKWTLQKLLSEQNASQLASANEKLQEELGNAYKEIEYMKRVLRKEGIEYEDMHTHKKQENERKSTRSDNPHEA
Technique: competition protein-binding microarray
Molecule type: double-stranded DNA, one strand shown
Sample: in vitro
Concentration: 2 µM
Notes: whole 60-bp probe, lowest competitor level
Added: Pho4 competitor, 0.05 µM
Direction: higher = stronger binding
With `TCTTGCTGATTCTGCATCGTGGTGAACAGACGGTTTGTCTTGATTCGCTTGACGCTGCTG` the fluorescence intensity was 76.6 a.u.
`TGTGCTTGGTTTGGAAACGTGCAAACACCTTACCTGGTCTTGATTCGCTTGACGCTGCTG` has a fluorescence intensity of 96.3 a.u.
`AAAGCGGTAATTTTTCACGTGGTATCAAATATCTATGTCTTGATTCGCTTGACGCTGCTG` has a fluorescence intensity of 2400 a.u.
For `TGACCGTTTTGTCTTCAGGTGATGAAGCAAACAACTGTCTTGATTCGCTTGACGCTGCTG`, the fluorescence intensity was 114 a.u.
The fluorescence intensity of `CGGGGTTAAGTTTGGGCCGTGGGTGGCTTGCAGCAGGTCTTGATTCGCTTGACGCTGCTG` is reported as 62.3 a.u.

Set 3
Target: Replicase polyprotein 1ab, nsp13 helicase (rep, Severe acute respiratory syndrome coronavirus 2, UniProt P0DTD1)
Mode: inhibitor
Concentration: 20 µM
`CC(=O)NCC(=O)N1[C@@H]2CC[C@H]1c1ccc(Nc3ncc(C(F)(F)F)c(NC4CCC4)n3)cc12` has an inhibition of 0.31%.
`CCC(=O)O[C@]1(C(=O)COC(C)=O)CC[C@H]2[C@@H]3C[C@H](C)C4=CC(=O)C=C[C@]4(C)[C@H]3[C@@H](O)C[C@@]21C` gave an inhibition of 7.07%.
The inhibition of `Nc1nc(=O)n([C@H]2C[C@H](O)[C@@H](CO)O2)cc1Cl` is reported as 9.41%.
The inhibition of `CN(C)CCC(c1ccccc1)c1ccccn1` (centres unmarked) is reported as 2.94%.
With `Cc1ccc([C@@H]2O[C@H](CO)[C@@H](O)[C@H](O)[C@H]2O)cc1Cc1ccc(-c2ccc(F)cc2)s1` the inhibition was 9.11%.
`C/C(=N\NC(=S)N1CCC1)c1ccccn1` has an inhibition of 8.43%.
`CN[C@@H]1Cc2cccc3[nH]c(=O)n(c23)C1` has an inhibition of 6.4%.
`NC(=O)c1ccc([N+](=O)[O-])cc1Cl` has an inhibition of 7.06%.
For `COc1ccc2nc3cc(Cl)ccc3c(Nc3cc(CN4CCCC4)c(O)c(CN4CCCC4)c3)c2n1`, the inhibition was 84.6%.
`CSc1ccccc1Nc1nc(N2CCNCC2)nc2c(NCC3CC3)ncnc12` gave an inhibition of 15.5%.
For `CO[C@H]1CC[C@H](N2C(=O)CNc3ncc(-c4ccc(C(C)(C)O)nc4)nc32)CC1`, the inhibition was 74.1%.
For `C[C@H](NC[C@H](O)CP(=O)(O)CC1CCCCC1)c1ccc(Cl)c(Cl)c1`, the inhibition was 0.83%.
With `C1CCN2C[C@@H]3C[C@@H](CN4CCCC[C@@H]34)[C@H]2C1` the inhibition was 2.97%.
With `NS(=O)(=O)c1cc(C(=O)O)c(NCc2ccco2)cc1Cl` the inhibition was 3.34%.
`CC(C)NCC(O)COc1ccc(CC(N)=O)cc1` (centres unmarked) gave an inhibition of 2.19% and 8.45%.
`C[C@@H](O)[C@H]1C(=O)N2C(C(=O)O)=C([C@H]3CCCO3)S[C@H]12` gave an inhibition of 0.63%.
The inhibition of `C=CC(=O)N1CCN(C(=O)CNc2cc(I)c(Cl)cc2O)CC1` is reported as 16%.
`Cc1noc2c1-c1ccccc1C(c1ccc(Cl)cc1)=N[C@H]2CC(N)=O` has an inhibition of -13.1%.
For `CN(Cc1cccc(-c2ccccc2)c1)C(=O)Oc1ccc(-c2ccc(C(N)=O)cc2)cc1`, the inhibition was 2.28%.
The inhibition of `CO[C@H]1/C=C\C=C(/C)C(=O)NC2=CC(=O)C(NCCN(C)C)=C(C[C@@H](C)C[C@H](OC)[C@H](O)[C@@H](C)/C=C(\C)[C@@H]1OC(N)=O)C2=O` is reported as 15.6%.
`O=P(O)(O)CP(=O)(O)O` has an inhibition of -5.2%.
For `COc1cccc(OCCCN)c1-c1cc(Nc2cnc(C#N)cn2)n[nH]1`, the inhibition was 6.19%.
`COc1cc(N)cn[n+]1-c1ccccc1` gave an inhibition of 0.82%.
The inhibition of `Cc1cc2ncc(C(=O)NCC(C)(C)NCC(=O)N3CCC[C@H]3C#N)cn2n1` is reported as -1.18%.
With `COc1cc(COc2cc(N)c(Cl)cc2C(=O)CCC2CCN(CCNS(C)(=O)=O)CC2)cc(OC)c1` the inhibition was 10.6%.

Set 4
Target: Interferon regulatory factor 7, full length, phosphomimetic (IRF7, Homo sapiens, UniProt Q92985, residues 1-503, S471D/S472D/S475D/S476D/S477D/S483D/S484D/S487D)
Technique: protein-binding microarray
Molecule type: double-stranded DNA, one strand shown
Sample: in vitro
Concentration: 2200 nM top
Notes: 60-bp whole probe
Added: salmon DNA 0.4 mg/ml
Relative to: random background probes
Direction: higher = stronger binding
Constant ends, left off below: GCCTAGCAC … GTCTTGATTCGCTTGACGCTGCTG
Residues (chain): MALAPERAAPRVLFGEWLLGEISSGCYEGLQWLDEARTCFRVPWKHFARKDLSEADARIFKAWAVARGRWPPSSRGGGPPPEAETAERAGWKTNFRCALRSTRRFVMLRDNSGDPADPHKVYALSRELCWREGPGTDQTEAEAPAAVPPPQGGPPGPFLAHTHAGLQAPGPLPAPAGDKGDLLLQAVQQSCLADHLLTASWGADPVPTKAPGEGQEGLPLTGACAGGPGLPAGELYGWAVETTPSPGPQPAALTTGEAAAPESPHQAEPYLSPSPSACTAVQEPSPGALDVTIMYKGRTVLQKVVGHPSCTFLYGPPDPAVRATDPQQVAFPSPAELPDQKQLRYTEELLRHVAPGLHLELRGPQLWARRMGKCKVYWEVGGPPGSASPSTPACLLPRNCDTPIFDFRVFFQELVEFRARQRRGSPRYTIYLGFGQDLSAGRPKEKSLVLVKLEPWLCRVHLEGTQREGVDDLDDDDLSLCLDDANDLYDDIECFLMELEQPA
For `TCAATACTCTTCCATGGAACTGTGCTA`, “fitted relative affinity” read 0.642 z-score.
For `CATTTATTTACTCTCTACATGTGCTAG`, “fitted relative affinity” read 1.85 z-score.
`TGTAATGATGTAGGCAAATGGTGCTAG`: “fitted relative affinity” -0.233 z-score.
`GACGATATCGGGCTTCGAGACGTGCTA`: “fitted relative affinity” -0.301 z-score.
`AATATTCTGCTTTGCAATAAGTGCTAG` — result for “fitted relative affinity”: 0.59 z-score.
Under “fitted relative affinity”, `GACGGACTGCTACTGCTGAGGTGCTAG` is recorded as -0.586 z-score.
`TTAGATTTAAGACTGGATTAGTGCTAG`: “fitted relative affinity” -0.823 z-score.
`TTAGGACTGCACTTTCGGTTAGTGCTA` — result for “fitted relative affinity”: 7.35 z-score.

Single results of other studies
rep 3C-like proteinase: Replicase polyprotein 1ab, 3C-like proteinase (rep, Middle East respiratory syndrome-related coronavirus, UniProt K9N7C7)
`CC[C@H](C)[C@H]1O[C@]2(CC[C@@H]1C)C[C@@H]1C[C@@H](C/C=C(\C)[C@@H](O[C@H]3C[C@H](OC)[C@@H](O[C@H]4C[C@H](OC)[C@@H](O)[C@H](C)O4)[C@H](C)O3)[C@@H](C)/C=C/C=C3\CO[C@@H]4[C@H](O)C(C)=C[C@@H](C(=O)O1)[C@]34O)O2` has a cell number of 95.5% (HEK-293T-ACE2; concentration not given; relative to: vehicle).
The inhibition of `CC[C@H](CO)Nc1nc(NCc2ccc(-c3ccccn3)cc2)c2ncn(C(C)C)c2n1` is reported as 4% (rep 3C-like proteinase; enzyme activity, inhibitor; MERS-CoV; 10 µM).
`CN(C)CCOc1ccc(/C(=C(/CCCl)c2ccccc2)c2ccccc2)cc1` gave a viability of 100% (HEK-293T/ACE2; 10 µM, 16 h).
`CC(C)Nc1cccnc1N1CCN(C(=O)c2cc3cc(NS(C)(=O)=O)ccc3[nH]2)CC1` has an IC50 of over 20 µM (Replicase polyprotein 1ab, main protease (rep, Severe acute respiratory syndrome coronavirus 2, UniProt P0DTD1); fluorogenic substrate cleavage, inhibitor; 60 min preincubation, 37 °C, added: 1 mM DTT).
`Cc1[nH]cnc1CN1CCc2c(c3ccccc3n2C)C1=O` gave a viability of 103% (HEK-293T/ACE2; concentration not given, 16 (unit not given); relative to: vehicle).
`[O-][S+](c1ccccc1)c1ccc2nnnn2n1` (centres unmarked) has an IC50 of 10.1 µM (rep 3C-like proteinase; enzyme activity, inhibitor; MERS-CoV).
With `C[C@H](CCC(=O)NCCS(=O)(=O)O)[C@H]1CC[C@H]2[C@@H]3[C@@H](O)C[C@@H]4C[C@H](O)CC[C@]4(C)[C@H]3CC[C@]12C` the GFP-positive cells was 86.1% (HEK-293T; pseudovirus infection; VSV pseudotyped with SARS-CoV-2 spike; 10 µM, 16 h; relative to: vehicle-treated).

For quick reference, copied from above (set 3):
`CC(=O)NCC(=O)N1[C@@H]2CC[C@H]1c1ccc(Nc3ncc(C(F)(F)F)c(NC4CCC4)n3)cc12` has an inhibition of 0.31%.
`CSc1ccccc1Nc1nc(N2CCNCC2)nc2c(NCC3CC3)ncnc12` gave an inhibition of 15.5%.
The inhibition of `CO[C@H]1/C=C\C=C(/C)C(=O)NC2=CC(=O)C(NCCN(C)C)=C(C[C@@H](C)C[C@H](OC)[C@H](O)[C@@H](C)/C=C(\C)[C@@H]1OC(N)=O)C2=O` is reported as 15.6%.
`CC(C)NCC(O)COc1ccc(CC(N)=O)cc1` (centres unmarked) gave an inhibition of 2.19% and 8.45%.
